Assay results gathered from unrelated publications.
Each numbered part is a random draw from the data of one study; scales do not carry over between parts. Substitutions count along the parent as printed.
Chain of UniProt Q5S007 (whole entry, unmodified, looked up): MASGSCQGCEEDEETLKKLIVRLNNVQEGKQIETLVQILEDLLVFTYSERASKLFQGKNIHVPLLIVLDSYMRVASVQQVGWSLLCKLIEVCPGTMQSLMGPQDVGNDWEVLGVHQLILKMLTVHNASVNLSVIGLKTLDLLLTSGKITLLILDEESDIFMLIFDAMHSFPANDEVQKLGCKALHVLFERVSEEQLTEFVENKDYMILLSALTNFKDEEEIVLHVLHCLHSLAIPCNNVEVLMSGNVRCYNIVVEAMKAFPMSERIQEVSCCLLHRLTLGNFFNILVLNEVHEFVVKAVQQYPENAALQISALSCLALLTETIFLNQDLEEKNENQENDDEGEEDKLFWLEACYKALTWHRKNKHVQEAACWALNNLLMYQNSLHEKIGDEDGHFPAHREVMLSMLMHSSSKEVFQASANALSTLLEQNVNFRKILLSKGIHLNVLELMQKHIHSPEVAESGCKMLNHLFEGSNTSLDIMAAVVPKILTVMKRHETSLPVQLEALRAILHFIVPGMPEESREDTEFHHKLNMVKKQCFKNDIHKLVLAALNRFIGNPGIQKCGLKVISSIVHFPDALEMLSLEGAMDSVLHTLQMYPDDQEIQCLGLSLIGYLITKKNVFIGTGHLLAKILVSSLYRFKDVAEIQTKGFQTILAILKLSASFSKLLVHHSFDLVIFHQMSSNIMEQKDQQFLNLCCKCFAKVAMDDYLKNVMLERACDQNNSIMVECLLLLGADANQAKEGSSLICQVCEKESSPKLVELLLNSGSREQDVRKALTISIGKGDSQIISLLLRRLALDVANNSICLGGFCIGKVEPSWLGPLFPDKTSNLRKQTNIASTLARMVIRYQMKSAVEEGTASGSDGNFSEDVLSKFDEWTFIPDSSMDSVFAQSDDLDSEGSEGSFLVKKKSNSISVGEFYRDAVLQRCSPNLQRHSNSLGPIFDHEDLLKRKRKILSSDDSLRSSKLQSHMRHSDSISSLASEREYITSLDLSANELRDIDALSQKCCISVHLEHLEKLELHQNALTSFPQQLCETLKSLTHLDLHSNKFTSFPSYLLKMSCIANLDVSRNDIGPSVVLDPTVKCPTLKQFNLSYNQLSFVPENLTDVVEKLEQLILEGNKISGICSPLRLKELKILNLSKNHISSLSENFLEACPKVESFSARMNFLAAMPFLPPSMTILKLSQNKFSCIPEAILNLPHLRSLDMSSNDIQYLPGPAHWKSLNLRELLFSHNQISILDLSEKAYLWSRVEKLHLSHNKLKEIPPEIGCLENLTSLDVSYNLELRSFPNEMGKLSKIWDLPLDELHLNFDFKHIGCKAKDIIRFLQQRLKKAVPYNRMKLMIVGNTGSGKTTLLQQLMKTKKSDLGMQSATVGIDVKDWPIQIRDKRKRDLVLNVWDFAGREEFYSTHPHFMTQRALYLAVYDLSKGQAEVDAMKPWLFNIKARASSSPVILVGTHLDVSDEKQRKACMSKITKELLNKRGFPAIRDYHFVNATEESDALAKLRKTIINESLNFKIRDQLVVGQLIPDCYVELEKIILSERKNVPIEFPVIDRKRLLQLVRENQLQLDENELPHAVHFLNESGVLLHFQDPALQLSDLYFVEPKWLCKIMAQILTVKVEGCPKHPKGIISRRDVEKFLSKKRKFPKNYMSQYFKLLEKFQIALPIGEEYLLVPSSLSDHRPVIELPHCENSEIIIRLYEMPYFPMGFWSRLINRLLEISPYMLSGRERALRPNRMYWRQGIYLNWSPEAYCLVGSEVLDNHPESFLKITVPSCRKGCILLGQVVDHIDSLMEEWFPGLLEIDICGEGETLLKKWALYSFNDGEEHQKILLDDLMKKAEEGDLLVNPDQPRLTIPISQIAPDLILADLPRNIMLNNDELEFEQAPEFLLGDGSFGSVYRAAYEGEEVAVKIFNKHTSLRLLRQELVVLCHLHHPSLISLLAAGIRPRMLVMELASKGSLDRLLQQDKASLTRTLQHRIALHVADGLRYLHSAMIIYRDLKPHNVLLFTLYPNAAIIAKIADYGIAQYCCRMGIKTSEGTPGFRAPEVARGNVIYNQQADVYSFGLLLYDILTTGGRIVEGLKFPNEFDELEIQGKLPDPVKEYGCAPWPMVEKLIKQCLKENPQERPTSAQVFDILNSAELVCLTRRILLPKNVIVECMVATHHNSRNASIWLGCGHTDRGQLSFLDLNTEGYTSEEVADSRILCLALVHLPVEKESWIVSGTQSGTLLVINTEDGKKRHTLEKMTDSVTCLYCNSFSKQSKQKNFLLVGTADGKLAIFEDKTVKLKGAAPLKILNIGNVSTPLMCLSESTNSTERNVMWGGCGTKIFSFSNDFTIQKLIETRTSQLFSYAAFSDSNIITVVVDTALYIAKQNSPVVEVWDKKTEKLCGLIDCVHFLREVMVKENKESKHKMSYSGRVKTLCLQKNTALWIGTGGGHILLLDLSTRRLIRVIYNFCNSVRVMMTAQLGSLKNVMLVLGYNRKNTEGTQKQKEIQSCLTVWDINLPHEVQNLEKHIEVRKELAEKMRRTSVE
Chain of UniProt P54756 (whole entry, looked up): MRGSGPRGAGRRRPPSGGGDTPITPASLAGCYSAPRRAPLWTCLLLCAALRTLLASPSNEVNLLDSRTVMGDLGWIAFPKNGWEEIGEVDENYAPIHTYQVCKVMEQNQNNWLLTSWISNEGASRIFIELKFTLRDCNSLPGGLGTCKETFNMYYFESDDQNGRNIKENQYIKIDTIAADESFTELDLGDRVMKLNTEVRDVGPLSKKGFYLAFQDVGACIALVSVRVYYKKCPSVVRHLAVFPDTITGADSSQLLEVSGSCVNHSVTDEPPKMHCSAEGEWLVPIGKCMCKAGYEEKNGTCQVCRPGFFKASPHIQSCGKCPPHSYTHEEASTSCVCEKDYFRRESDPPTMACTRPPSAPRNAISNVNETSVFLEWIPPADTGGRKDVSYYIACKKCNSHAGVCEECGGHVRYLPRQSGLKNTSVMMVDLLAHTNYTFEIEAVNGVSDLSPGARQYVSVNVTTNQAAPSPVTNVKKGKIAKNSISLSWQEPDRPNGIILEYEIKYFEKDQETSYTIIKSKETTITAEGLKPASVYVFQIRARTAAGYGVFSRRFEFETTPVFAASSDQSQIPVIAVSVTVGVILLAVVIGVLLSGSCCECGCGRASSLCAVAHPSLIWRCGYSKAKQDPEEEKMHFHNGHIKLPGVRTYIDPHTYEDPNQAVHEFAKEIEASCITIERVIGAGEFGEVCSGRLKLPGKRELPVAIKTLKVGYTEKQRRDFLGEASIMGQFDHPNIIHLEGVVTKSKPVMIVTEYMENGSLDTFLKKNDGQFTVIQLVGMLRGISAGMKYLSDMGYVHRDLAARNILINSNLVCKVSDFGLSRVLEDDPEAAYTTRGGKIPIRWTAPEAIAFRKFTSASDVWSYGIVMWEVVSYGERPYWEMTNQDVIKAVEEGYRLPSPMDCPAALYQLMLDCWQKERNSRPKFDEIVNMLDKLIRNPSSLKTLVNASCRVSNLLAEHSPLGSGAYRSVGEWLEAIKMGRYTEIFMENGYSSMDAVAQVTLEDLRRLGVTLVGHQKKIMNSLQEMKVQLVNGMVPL
Chain of UniProt P53778 (whole entry, looked up): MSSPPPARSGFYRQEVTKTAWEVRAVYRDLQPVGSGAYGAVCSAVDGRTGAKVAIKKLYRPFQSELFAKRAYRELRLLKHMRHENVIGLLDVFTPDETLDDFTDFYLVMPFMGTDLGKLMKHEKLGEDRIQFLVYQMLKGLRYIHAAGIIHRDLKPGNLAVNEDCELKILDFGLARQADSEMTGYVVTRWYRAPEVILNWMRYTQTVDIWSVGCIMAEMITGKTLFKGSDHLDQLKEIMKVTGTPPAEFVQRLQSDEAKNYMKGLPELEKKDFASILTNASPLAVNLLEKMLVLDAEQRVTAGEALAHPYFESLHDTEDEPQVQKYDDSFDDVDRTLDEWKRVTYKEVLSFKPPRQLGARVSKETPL
Chain of UniProt P11802 (whole entry, looked up): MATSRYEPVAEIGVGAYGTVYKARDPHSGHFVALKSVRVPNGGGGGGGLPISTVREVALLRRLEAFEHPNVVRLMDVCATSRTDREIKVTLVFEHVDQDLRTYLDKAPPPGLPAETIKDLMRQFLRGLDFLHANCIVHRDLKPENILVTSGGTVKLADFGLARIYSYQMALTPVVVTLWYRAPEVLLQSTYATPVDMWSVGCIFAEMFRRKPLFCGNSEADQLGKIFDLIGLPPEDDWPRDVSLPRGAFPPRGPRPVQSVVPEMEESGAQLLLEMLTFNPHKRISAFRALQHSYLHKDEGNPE
Chain of UniProt P52564 (whole entry, looked up): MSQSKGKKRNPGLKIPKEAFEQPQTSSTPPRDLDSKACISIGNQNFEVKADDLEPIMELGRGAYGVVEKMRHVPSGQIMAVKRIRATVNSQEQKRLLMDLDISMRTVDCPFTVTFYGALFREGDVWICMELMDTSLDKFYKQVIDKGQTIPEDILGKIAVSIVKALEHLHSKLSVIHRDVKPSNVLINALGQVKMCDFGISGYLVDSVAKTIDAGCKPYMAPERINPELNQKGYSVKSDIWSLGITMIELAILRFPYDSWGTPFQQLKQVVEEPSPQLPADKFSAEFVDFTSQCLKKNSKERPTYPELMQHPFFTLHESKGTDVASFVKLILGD
Chain of UniProt P50613 (whole entry, looked up): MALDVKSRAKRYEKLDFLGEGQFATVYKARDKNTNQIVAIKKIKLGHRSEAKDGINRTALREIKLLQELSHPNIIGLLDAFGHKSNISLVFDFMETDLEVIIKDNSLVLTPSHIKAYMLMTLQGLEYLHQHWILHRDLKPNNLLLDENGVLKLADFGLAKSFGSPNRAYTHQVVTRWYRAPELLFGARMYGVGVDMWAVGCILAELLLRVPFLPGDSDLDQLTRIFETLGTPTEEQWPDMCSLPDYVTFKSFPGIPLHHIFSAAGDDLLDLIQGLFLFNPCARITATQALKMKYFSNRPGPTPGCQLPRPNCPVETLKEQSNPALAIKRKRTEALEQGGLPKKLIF

Set 1
Target: Sox, HMG box (Pigoraptor chileana)
Method: Spec-seq
Molecule type: double-stranded DNA, one strand shown
Medium: in vitro
Tested at: not given
Notes: whole probe, mean of replicates
Reference: not given
Reading: lower = stronger binding
Constant ends, left off below: GAGTCGTCTCGTCAGCAC … GTTCCGTAGAGCACTCAGGTC
Construct (chain): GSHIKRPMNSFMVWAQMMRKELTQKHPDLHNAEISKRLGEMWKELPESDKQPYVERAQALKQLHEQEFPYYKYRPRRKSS
Oligonucleotide	relative binding energy
ATCC	0.399 ln ratio
ACAC	0.435 ln ratio
CAAA	0.47 ln ratio
TGGA	0.914 ln ratio
GAAA	1.15 ln ratio
TGAT	-0.0968 ln ratio
ATTT	-2.18 ln ratio
CGCA	0.412 ln ratio

Set 2
Target: CRIPT, C-terminal peptide
Method: DHFR complementation, deep sequencing
Medium: yeast
Notes: single substitutions, model-inferred values
Reference: wild type
Reading: higher = weaker binding
Starting sequence: ERBIN, PDZ domain 1 (human); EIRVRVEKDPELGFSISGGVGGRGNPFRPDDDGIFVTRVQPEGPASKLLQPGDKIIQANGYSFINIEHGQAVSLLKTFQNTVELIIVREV; partner TKNYKQTSV
Substitution	binding free energy change [kcal/mol]
N65P	-0.0193
V87L	0.0485
K8H	0.78
R88K	0.332
E83F	0.179
H68T	1.32
K54D	0.823
V87W	-0.0168

Set 3
SMILES: Nc1nc(Nc2ccc(S(N)(=O)=O)cc2)nn1C(=S)Nc1c(F)cccc1F
Effect on: enzyme activity
Mode: inhibitor
Tested at: 0.5 µM
Reference: control
target	remaining activity [%]
Mitogen-activated protein kinase 12 (MAPK12, Homo sapiens, UniProt P53778)	95.2
MAP kinase-interacting serine/threonine-protein kinase 2 (MKNK2, Homo sapiens, UniProt Q9HBH9)	17.2
Mitogen-activated protein kinase kinase kinase kinase 2 (MAP4K2, Homo sapiens, UniProt Q12851)	2.13
Protein kinase C delta type (PRKCD, Homo sapiens, UniProt Q05655)	22.2
RAC-gamma serine/threonine-protein kinase (AKT3, Homo sapiens, UniProt Q9Y243)	96.4
Mitogen-activated protein kinase kinase kinase 10 (MAP3K10, Homo sapiens, UniProt Q02779)	3
Mast/stem cell growth factor receptor Kit (KIT, Homo sapiens, UniProt P10721)	78.4
Dual specificity mitogen-activated protein kinase kinase 6 (MAP2K6, Homo sapiens, UniProt P52564)	62.7
Interleukin-1 receptor-associated kinase 4 (IRAK4, Homo sapiens, UniProt Q9NWZ3)	19.6
Ephrin type-A receptor 5 (EPHA5, Homo sapiens, UniProt P54756)	56.7
Tyrosine-protein kinase BTK (BTK, Homo sapiens, UniProt Q06187)	84.1
Leucine-rich repeat serine/threonine-protein kinase 2 (LRRK2, Homo sapiens, UniProt Q5S007)	1.33

Set 4
SMILES: N#CC1(c2ccccn2)CCN(Cc2cc(C(=O)N3CCCC3)c(=O)n3ccccc23)CC1
Effect on: cell-free assay
Method: competition with immobilised ligand
Tested at: 1 µM
target	remaining binding [%]
Cyclin-dependent kinase 4 (CDK4, Homo sapiens, UniProt P11802)	91
Cyclin-dependent kinase 7 (CDK7, Homo sapiens, UniProt P50613)	82
Receptor-type tyrosine-protein kinase FLT3 (FLT3, Homo sapiens, UniProt P36888, R834Q)	100
Cyclin-dependent kinase 9 (CDK9, Homo sapiens, UniProt P50750)	88
Tyrosine-protein kinase ABL1, non-phosphorylated (ABL1, Homo sapiens, UniProt P00519, T315I)	83
Mitogen-activated protein kinase kinase kinase 7 (MAP3K7, Homo sapiens, UniProt O43318)	99
Leucine-rich repeat serine/threonine-protein kinase 2 (LRRK2, Homo sapiens, UniProt Q5S007, G2019S)	100
Protein-tyrosine kinase 2-beta (PTK2B, Homo sapiens, UniProt Q14289)	86
Megakaryocyte-associated tyrosine-protein kinase (MATK, Homo sapiens, UniProt P42679)	76
Tyrosine-protein kinase receptor TYRO3 (TYRO3, Homo sapiens, UniProt Q06418)	78
Mitogen-activated protein kinase kinase kinase kinase 3 (MAP4K3, Homo sapiens, UniProt Q8IVH8)	81

Some of these lines once more (set 2):
Substitution	binding free energy change [kcal/mol]
K8H	0.78
H68T	1.32
R88K	0.332
K54D	0.823
V87W	-0.0168
